# Measurements of several laboratories.
# Lines come from different studies, so protocols differ. ± marks the error that the study gave.
# Sequence of UniProt P21729 (whole entry, looked up): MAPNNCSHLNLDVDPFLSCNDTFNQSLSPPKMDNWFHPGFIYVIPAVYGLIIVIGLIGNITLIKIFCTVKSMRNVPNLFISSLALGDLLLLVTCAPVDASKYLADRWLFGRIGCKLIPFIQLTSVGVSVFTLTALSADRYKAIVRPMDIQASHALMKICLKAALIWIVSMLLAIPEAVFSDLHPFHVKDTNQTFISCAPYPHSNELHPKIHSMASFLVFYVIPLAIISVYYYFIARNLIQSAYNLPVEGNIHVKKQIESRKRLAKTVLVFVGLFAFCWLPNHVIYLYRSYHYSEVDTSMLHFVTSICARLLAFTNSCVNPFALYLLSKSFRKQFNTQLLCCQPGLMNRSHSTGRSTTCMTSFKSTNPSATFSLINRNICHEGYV
Compound,target or system,assay,system,setting,scale,measurement,result
CC[C@H](C)[C@H](NC(=O)[C@H](CCCNC(=N)N)NC(=O)[C@H](CCC(N)=O)NC(=O)[C@H](CC(=O)O)NC(=O)[C@H](CC(C)C)NC(=O)[C@H](CC(C)C)NC(=O)[C@H](CC(N)=O)NC(=O)[C@H](Cc1ccccc1)NC(=O)[C@H](CC(=O)O)NC(=O)[C@@H](NC(=O)[C@@H](NC(=O)[C@H](CC(N)=O)NC(=O)CNC(=O)[C@H](CO)NC(C)=O)C(C)C)[C@@H](C)CC)C(=O)N[C@H](C(=O)N[C@@H](Cc1c[nH]c2ccccc12)C(=O)N[C@@H](CCC(N)=O)C(=O)N[C@@H](CC(N)=O)C(=O)N[C@@H](Cc1c[nH]c2ccccc12)C(=O)N[C@@H](Cc1ccc(O)cc1)C(=O)N[C@@H](C)C(N)=O)[C@@H](C)CC,,measured: HA-52 tetramer,"antigen-experienced tetramer+ CD4 T cells, healthy adults, HLA-DRB1*0101",dose not given,,α4β7+ CCR9− cells,55.6%
CCOP(=O)(OCC)OCCCCOC(=O)CC1=C(C)C(=Cc2ccc([S+](C)[O-])cc2)c2ccc(F)cc21 (stereo not drawn),,measured: phospho-MEK,"nude mice, orthotopic A549 tumour, tumour","inhalation, dose not given",baseline: vehicle,decrease in phosphorylation,55%
Cc1cc(Nc2nc(C[C@@]3(C(=O)O)CCN(Cc4cccc(Cl)c4F)[C@H](C)C3)cc(C)c2F)[nH]n1,,,"mice, NCI-H69 xenograft","oral, 2.5 mg/kg once daily",,tumour growth inhibition,60%
C[C@@](O)(C(F)F)[C@H](NC(=O)c1ccc(C#CC#CC2CC2)cc1)C(=O)NO,,,"dog, plasma","intravenous, 30 mg/kg",,Vd,3.4 L/kg
COc1ccc([N+](=O)[O-])cc1NC(=O)CCC(=O)[O][Zn][O]C(=O)CCC(=O)Nc1cc([N+](=O)[O-])ccc1OC.c1ccncc1,,"DPPH scavenging, absorbance",,125 µg/mL,,inhibition,66.3%
CC[C@H](C)[C@H](NC(=O)[C@@H](NC(=O)[C@H](CC(=O)O)NC(C)=O)[C@@H](C)O)C(=O)N[C@@H](CCCNC(=N)N)C(=O)N[C@@H](CC(C)C)C(=O)N[C@@H](CC(C)C)C(=O)N[C@@H](Cc1ccccc1)C(=O)N[C@@H](CCC(N)=O)C(=O)N[C@@H](CC(C)C)C(=O)N[C@@H](CCSC)C(=O)N[C@@H](CCCNC(=N)N)C(=O)N1CCC[C@H]1C(=O)N1CCC[C@H]1C(=O)N[C@@H](CC(N)=O)C(=O)N[C@@H](CCSC)C(=O)N[C@H](C(=O)N1CCC[C@H]1C(=O)N[C@@H](C)C(=O)N[C@H](C(=O)N[C@@H](CC(N)=O)C(=O)N[C@@H](C)C(N)=O)C(C)C)[C@@H](C)O,,TNF-α and/or IFN-γ production,"compound-specific CD4 T cell line, healthy adult human","NG, 6 h, 37 °C",,cytokine-producing tetramer+ CD4 T cells,~70%
O=C(O)CCCC(=O)O,,DPPH radical scavenging,,1000 µg/mL,,inhibition,82.1 ± 1.21%
CC[C@H](C)CCCCC(=O)N[C@@H](CCN)C(=O)N[C@H](C(=O)N[C@@H](CCN)C(=O)N[C@H]1CCNC(=O)[C@H]([C@@H](C)O)NC(=O)[C@H](CCN)NC(=O)[C@H](CCN)NC(=O)[C@H](CC(C)C)NC(=O)[C@@H](Cc2ccccc2)NC(=O)[C@H](CCN)NC1=O)[C@@H](C)O,,,"C57BL/6 mouse, CLP sepsis","intravenous, 5 mg/kg every two days × 3, first dose 2 h after CLP",,survival,33%
CCCNC(=O)[C@H](CC(C)C)NC(=O)[C@H](Cc1c[nH]cn1)NC(=O)CNC(=O)[C@@H](NC(=O)[C@H](C)NC(=O)[C@H](Cc1c[nH]c2ccccc12)NC(=O)[C@H](CCC(N)=O)NC(=O)[C@@H](Cc1ccccc1)NC(=O)CCCCCNC(=O)CN1CCN(CC(=O)O)CCN(CC(=O)O)CCN(CC(=O)O)CC1)C(C)C [indium-111 labelled],"Gastrin-releasing peptide receptor (Mus musculus, UniProt P21729)",,"CF-1 mice, carcass","intravenous, 0.185 MBq, 1 h",,tissue uptake,0.16 ± 0.01 %ID/g
CC(C)[C@]12O[C@H]1[C@@H]1O[C@]13[C@]1(O[C@H]1C[C@H]1c4c(C(=O)c5ccccc5)oc(OC(=O)c5ccccc5)c4CC[C@@]13C)[C@@H]2O,AML patient cells,"apoptosis, Annexin V flow cytometry",,"24 h, together with: MS-5 stromal co-culture",,EC50,0.0406 µM
CN[C@](C)(C[18F])C(=O)O,MDA-MB-468 tumour model,,"host not given, bone","15 min, tumour-bearing",,tracer uptake,2.1 %ID/g
CCOC(=O)Nc1ccc2c(c1)CN1C(=S)N(c3ccc(C#N)c(C(F)(F)F)c3)C(=O)C1C2 (stereo not drawn),,,"mouse, 22Rv1 orthotopic xenograft","intravenous, 25 mg/kg/day",baseline: vehicle,decrease in Ki-67 proliferative index,30.8%
Cc1ccc(/C=C/C(=O)O)cc1-c1cc2c(cc1C)C(C)(C)CCC2(C)C,,"RNA sequencing, measured: Ifit3 mRNA","rat, brain","dose not given, 24 h, single dose",baseline: vehicle,log2 fold change,0.5
Nc1ccc(/C=C/C(=O)N2CCc3c(oc4c(-c5ccc(F)cc5)cc(-c5ccc(C(=O)N6CCC(F)(F)CC6)cn5)cc34)C2)cn1,MIA PaCa-2,"cell growth or viability, CCK-8",,72 h,,IC50,0.38 to 0.94 µM
CCCCCCCCCCCCCCCC(=O)N[C@@H](CCC(=O)NCCOCCOCCC(=O)NCCOCCOCCC(=O)NCCCC[C@H](NC(=O)[C@H](CC(=O)O)NC(=O)[C@H](CC(C)C)NC(=O)[C@H](Cc1ccc(O)cc1)NC(=O)[C@H](CCCCN)NC(=O)[C@H](CO)NC(=O)[C@H](Cc1ccc(O)cc1)NC(=O)[C@H](CC(=O)O)NC(=O)[C@H](CO)NC(=O)[C@@H](NC(=O)[C@H](Cc1ccccc1)NC(=O)[C@@H](NC(=O)CNC(=O)[C@H](CCC(N)=O)NC(=O)[C@@H](CO)NC(=O)[C@@H](N)Cc1c[nH]cn1)[C@@H](C)O)[C@@H](C)O)C(=O)N[C@@H](CCCNC(=N)N)C(=O)N[C@@H](CCCNC(=N)N)C(=O)N[C@@H](C)C(=O)N[C@@H](CCC(N)=O)C(=O)N[C@@H](CC(=O)O)C(=O)N[C@@H](Cc1ccccc1)C(=O)N[C@H](C(=O)N[C@@H](CCC(N)=O)C(=O)N[C@@H](Cc1c[nH]c2ccccc12)C(=O)N[C@@H](CC(C)C)C(=O)N[C@@H](CC(C)C)C(=O)N[C@@H](CC(N)=O)C(=O)N[C@H](C(=O)NCC(=O)NCC(=O)N1CCC[C@H]1C(=O)N[C@@H](CO)C(=O)N[C@@H](CO)C(=O)NCC(=O)N[C@@H](C)C(=O)N1CCC[C@H]1C(=O)N1CCC[C@H]1C(=O)N1CCC[C@H]1C(=O)N[C@@H](CO)C(N)=O)[C@@H](C)O)C(C)C)C(=O)O,,"qPCR, measured: Pdgf, Timp1","Sprague-Dawley rat CCl4 model, liver",dose not given,,mRNA level,decreased
